Assay results of several laboratories.
± gives the spread as reported.
Sequence of UniProt Q15208 (whole entry, looked up): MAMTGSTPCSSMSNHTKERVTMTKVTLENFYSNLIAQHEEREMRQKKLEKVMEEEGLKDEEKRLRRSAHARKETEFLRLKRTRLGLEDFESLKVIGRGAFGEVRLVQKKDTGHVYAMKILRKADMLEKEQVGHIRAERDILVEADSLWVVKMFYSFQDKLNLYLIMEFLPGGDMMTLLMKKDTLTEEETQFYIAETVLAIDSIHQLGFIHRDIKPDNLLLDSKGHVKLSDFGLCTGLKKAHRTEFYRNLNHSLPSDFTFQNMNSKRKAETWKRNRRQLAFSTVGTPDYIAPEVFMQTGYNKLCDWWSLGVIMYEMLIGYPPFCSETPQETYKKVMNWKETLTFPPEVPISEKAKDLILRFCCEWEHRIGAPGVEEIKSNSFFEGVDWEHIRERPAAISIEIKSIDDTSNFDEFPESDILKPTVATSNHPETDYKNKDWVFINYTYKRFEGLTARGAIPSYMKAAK
Sequence of UniProt P51956 (whole entry, looked up): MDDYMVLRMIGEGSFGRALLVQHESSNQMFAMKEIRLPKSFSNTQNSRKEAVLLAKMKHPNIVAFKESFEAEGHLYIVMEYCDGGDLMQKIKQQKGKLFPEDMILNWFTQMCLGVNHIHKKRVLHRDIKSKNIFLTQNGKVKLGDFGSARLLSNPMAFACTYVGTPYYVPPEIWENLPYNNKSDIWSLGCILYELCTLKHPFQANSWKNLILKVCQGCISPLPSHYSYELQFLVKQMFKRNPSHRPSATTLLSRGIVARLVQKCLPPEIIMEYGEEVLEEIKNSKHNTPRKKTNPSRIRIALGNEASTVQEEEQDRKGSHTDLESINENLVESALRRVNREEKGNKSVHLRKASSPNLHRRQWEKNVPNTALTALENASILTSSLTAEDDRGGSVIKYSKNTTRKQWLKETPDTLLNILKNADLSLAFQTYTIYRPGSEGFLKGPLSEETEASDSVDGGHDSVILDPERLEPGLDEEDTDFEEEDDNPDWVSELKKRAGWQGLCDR
Sequence of UniProt Q13555 (whole entry, looked up): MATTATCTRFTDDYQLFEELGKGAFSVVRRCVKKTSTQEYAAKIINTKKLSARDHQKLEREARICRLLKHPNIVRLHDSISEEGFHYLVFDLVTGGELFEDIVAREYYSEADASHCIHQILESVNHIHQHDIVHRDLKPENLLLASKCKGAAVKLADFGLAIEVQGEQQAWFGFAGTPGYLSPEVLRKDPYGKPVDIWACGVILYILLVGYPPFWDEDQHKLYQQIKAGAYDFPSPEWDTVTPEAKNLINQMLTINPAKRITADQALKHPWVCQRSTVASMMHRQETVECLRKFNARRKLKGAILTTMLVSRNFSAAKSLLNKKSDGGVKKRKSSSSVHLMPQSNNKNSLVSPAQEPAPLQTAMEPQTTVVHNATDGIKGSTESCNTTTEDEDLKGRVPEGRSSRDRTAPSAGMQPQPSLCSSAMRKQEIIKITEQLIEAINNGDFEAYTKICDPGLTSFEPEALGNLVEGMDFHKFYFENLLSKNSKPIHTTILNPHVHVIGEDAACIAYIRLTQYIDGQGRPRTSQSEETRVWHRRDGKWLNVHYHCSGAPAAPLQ

CC(C)(C)C(=O)OCOP(=O)(OCOC(=O)C(C)(C)C)C1CCCN(O)C1=O (stereo not drawn)  TGI (UO-31): 6410 nM
CC(C)[C@H]1NC(=O)C[C@H]2/C=C/CCSSC[C@@H](NC1=O)C(=O)N[C@H](Cc1cccc3ccccc13)C(=O)NCC(=O)O2  inhibition (CAMK2G (Homo sapiens, UniProt Q13555); enzyme activity, inhibitor; 10 µM): -2.7%
COC(=O)C1=CO[C@@H](C)[C@@H]2Cn3ccc4c5ccccc5nc-4c3C[C@H]12  IC50 (Plasmodium falciparum; growth, [3H]-hypoxanthine uptake; Dd2; 72 h): 353 ± 149 nM
CC(=O)O[C@H]1C[C@H](O[C@H]2[C@@H](O)C[C@H](O[C@H]3[C@@H](O)C[C@H](O[C@H]4CC[C@@]5(C)[C@H](CC[C@@H]6[C@@H]5C[C@@H](O)[C@]5(C)[C@@H](C7=CC(=O)OC7)CC[C@]65O)C4)O[C@@H]3C)O[C@@H]2C)O[C@H](C)[C@H]1O[C@@H]1O[C@H](CO)[C@@H](O)[C@H](O)[C@H]1O  IC50 (human alphaherpesvirus 1; K26 GFP, 3D adult human skin submerged; 48 h): 170 nM
Cc1cc(N2CCC(C#N)(C3(C)CC3)C2=O)cc(C(=O)NCc2cc(F)cc(-c3cnn(C)c3)c2)n1 (racemic)  IC50 (Plasmodium falciparum; parasite growth; Dd2-B2 parent line): 21 nM
C=CC(=O)N1CC/C(=C\c2ccc(F)c([N+](=O)[O-])c2)C(=O)/C(=C/c2ccc(F)c([N+](=O)[O-])c2)C1  IC50 (human alphaherpesvirus 1; K26 GFP, 3D adult human skin air-liquid interface; 48 h): 240 nM
CCCCCCCCCCCCCCC[C@@H](O)[C@H](CO)NC(=O)N[C@@H](CC(C)C)C(=O)N[C@@H](CC(C)C)C(=O)N[C@@H](CCC(N)=O)C(=O)N[C@@H](CC(C)C)C(=O)N[C@H](C(=O)N[C@H](C(=O)N[C@@H](Cc1c[nH]c2ccccc12)C(=O)NCC(=O)N[C@H](C(=O)N[C@@H](CCCCN)C(=O)N[C@@H](CCC(N)=O)C(=O)N[C@@H](CC(C)C)C(=O)N[C@@H](CCC(N)=O)C(=O)N[C@@H](C)C(=O)N[C@@H](CCCNC(=N)N)C(=O)N[C@H](C(=O)N[C@@H](CC(C)C)C(=O)N[C@@H](CCCCN)C(N)=O)[C@@H](C)CC)[C@@H](C)CC)C(C)C)[C@@H](C)O  IC50 (HIV-1 HXB2; viral infection, luciferase reporter; TZM-bl): 118 ± 18 nM
NCCC[C@@H]1NC(=O)[C@@H](CCCN)NC(=O)[C@H](Cc2ccccc2)NC(=O)[C@@H](Cc2ccc(F)c(F)c2)NC(=O)[C@H](Cc2ccccc2)NC(=O)[C@@H](CCCN)NC1=O  IC50 (Balamuthia mandrillaris; parasite growth, ATP luminescence): 13400 nM
CCCCC(CC)COC(=O)CC(C(=O)OCC(CC)CCCC)S(=O)(=O)O.CCCSc1ccc2[nH]c(NC(=O)OC)nc2c1 (stereo not drawn)  IC50 (Cryptococcus neoformans var. grubii; EUCAST broth microdilution; KN99α reference strain; 72 h, 37 °C, RPMI with 2% glucose): 625 nM
CC[C@H](C)[C@H](NC(=O)[C@H](CC(C)C)NC(=O)[C@H](CC(C)C)NC(=O)[C@H](CC(=O)O)NC(=O)[C@@H](NC(=O)[C@H](CCC(=O)O)NC(=O)[C@H](CCCCN)NC(=O)[C@H](Cc1ccc(O)cc1)NC(=O)[C@H](CCCCN)NC(=O)[C@H](Cc1c[nH]cn1)NC(=O)CNC(=O)CN)[C@@H](C)O)C(=O)N[C@@H](CC(C)C)C(=O)N[C@@H](Cc1ccccc1)C(=O)N[C@@H](CCCCN)C(=O)N[C@@H](CC(=O)O)C(=O)N[C@@H](CC(=O)O)C(=O)N[C@@H](Cc1ccc(O)cc1)C(=O)N[C@@H](Cc1ccccc1)C(=O)N[C@@H](C)C(=O)N[C@@H](CCCCN)C(=O)N[C@@H](CCCCN)C(=O)N[C@@H](CC(N)=O)C(=O)N[C@@H](CCC(=O)O)C(=O)N[C@@H](CCC(=O)O)C(=O)N[C@@H](CCCNC(=N)N)C(=O)N[C@@H](CCCCN)C(N)=O  IC50 (hepatitis C virus; viral replication, luciferase reporter; Huh-7 ET replicon; 72 h): 750 nM
CC[C@H](C)[C@H](NC(=O)[C@H](CC(C)C)NC(=O)[C@H](CO)NC(=O)[C@H](Cc1c[nH]cn1)NC(=O)[C@@H](NC(=O)[C@H](CC(C)C)NC(=O)[C@H](CO)NC(=O)[C@@H](NC(=O)[C@@H](N)Cc1ccc(O)cc1)[C@@H](C)O)[C@@H](C)CC)C(=O)N[C@@H](CCC(=O)O)C(=O)N[C@@H](CCC(=O)O)C(=O)N[C@@H](CO)C(=O)N[C@@H](CCC(N)=O)C(=O)N[C@@H](CC(N)=O)C(=O)N[C@@H](CCC(N)=O)C(=O)N[C@@H](CCC(N)=O)C(=O)N[C@@H](CCC(=O)O)C(=O)N[C@@H](CCCCN)C(=O)N[C@@H](CC(N)=O)C(=O)N[C@@H](CCCCN)C(N)=O  IC50 (HIV-1 HXB2; viral infection, luciferase reporter; TZM-bl): 2210 ± 507 nM
CC[C@H](C)[C@H](NC(=O)[C@H](Cc1c[nH]c2ccccc12)NC(=O)c1ccccc1)C(=O)N[C@@H](CCCNC(=N)N)C(=O)N[C@@H](Cc1ccc(O)cc1)C(=O)N[C@@H](CCCCN)C(=O)N[C@@H](Cc1c[nH]c2ccccc12)C(=O)N[C@H](CCCNC(=N)N)C(=O)N[C@@H](CCCNC(=N)N)C(=O)N[C@@H](CCCCN)C(=O)N[C@@H](CCCCN)C(=O)N[C@H](C(=O)N[C@@H](CCCNC(=N)N)C(=O)N[C@@H](Cc1ccc(O)cc1)C(=O)N[C@@H](Cc1c[nH]c2ccccc12)C(=O)N[C@H](C(=O)NCC(=O)N1CCC[C@H]1C(N)=O)[C@@H](C)O)C(C)C  IC50 (Corynebacterium glutamicum; growth; ATCC 13032): 60 nM
CC(C)C[C@H](NC(=O)[C@H](CCCNC(=N)N)NC(=O)[C@H](CCCNC(=N)N)NC(=O)[C@H](C)NC(=O)[C@H](CCC(N)=O)NC(=O)[C@H](CC(N)=O)NC(=O)[C@H](CCC(N)=O)NC(=O)[C@H](CCCCN)NC(=O)[C@H](CO)NC(=O)CNC(=O)[C@H](Cc1c[nH]c2ccccc12)NC(=O)[C@@H](NC(=O)[C@H](CO)NC(=O)[C@H](CC(C)C)NC(=O)[C@H](CCC(N)=O)NC(=O)[C@H](CCC(=O)O)NC(=O)[C@@H](N)CC(C)C)C(C)C)C(N)=O  IC50 (HIV-1 HXB2; viral infection, luciferase reporter; TZM-bl): > 4000 nM
O=C1NC2(CC2)COc2ncc(F)cc2[C@H]2COCCN2c2ccn3ncc1c3n2  serum sodium (Sprague-Dawley rat, female, serum; oral, 2.5 mg/kg/day, end of treatment, 4-week subacute toxicity): 145 ± 2 mmol/L
COc1ccccc1-c1n[nH]c2nc(NC3CCN(C(=O)Cc4ccc(F)cc4F)CC3)ncc12  relative abundance (bead binding, competition bead pull-down, measured: LINJ.05.0350; Leishmania donovani axenic amastigote extract; 10 µM; relative to: vehicle): 1.16
O=C(Oc1cc(OC(=O)c2cc(O)c(O)c(O)c2)c2ccccc2c1)c1cc(O)c(O)c(O)c1  IC50 (human alphaherpesvirus 2; viral replication, RT-qPCR; acyclovir-resistant): 1420 ± 220 nM
Oc1c(Br)cc(Br)c2nc3ccc(C(F)(F)F)cc3nc12  IC50 (Acinetobacter baumannii; microbial growth; 19606): > 100000 nM
CN(C)[C@H]1C[C@@]23CC[C@@]4(O2)C(=CC[C@]2(C)[C@@H](c5ccc6ccncc6c5)CC[C@H]24)C=C3[C@@H](O)[C@@H]1O  inhibition (STK38 (Homo sapiens, UniProt Q15208); ATP probe labelling, inhibitor, KiNativ profiling; 0.1 µM): -0.7%
C[C@@H]1NC(=O)[C@@H](CCCN)NC(=O)[C@H](Cc2ccccc2)NC(=O)[C@@H](Cc2ccccc2)NC(=O)[C@H](Cc2ccccc2)NC(=O)[C@@H](CCCN)NC1=O  IC50 (Balamuthia mandrillaris; parasite growth, ATP luminescence): 14800 nM
CC[C@H](C)[C@H](NC(=O)[C@H](Cc1c[nH]c2ccccc12)NC(=O)c1ccccc1)C(=O)N[C@H](C(=O)N[C@@H](Cc1ccc(O)cc1)C(=O)N[C@@H](CCCCN)C(=O)N[C@@H](Cc1c[nH]c2ccccc12)C(=O)N1CCC[C@@H]1C(=O)N[C@@H](CCCNC(=N)N)C(=O)N[C@@H](CCCCN)C(=O)N[C@@H](CCCCN)C(=O)N[C@H](C(=O)N[C@@H](CCCNC(=N)N)C(=O)N[C@@H](Cc1ccc(O)cc1)C(=O)N[C@@H](Cc1c[nH]c2ccccc12)C(=O)N[C@H](C(=O)NCC(=O)N1CCC[C@H]1C(N)=O)[C@@H](C)O)C(C)C)C(C)C  IC50 (Corynebacterium glutamicum; growth; ATCC 13032): 130 nM
CS(C)(=O)=Nc1ccc(-c2ccc(-c3nc4cc(O[C@@H]5CO[C@H]6[C@@H]5OC[C@H]6O)[nH]c4cc3F)cc2)cc1  inhibition (NEK3 (Homo sapiens, UniProt P51956); enzyme activity, inhibitor; 10 µM): 1%
CC[C@H](C)[C@H](NC(=O)[C@H](Cc1c[nH]c2ccccc12)NC(=O)c1ccccc1)C(=O)N[C@H](C(=O)N[C@@H](Cc1ccc(O)cc1)C(=O)N[C@@H](CCCCN)C(=O)N[C@@H](Cc1c[nH]c2ccccc12)C(=O)N[C@H](CCCNC(=N)N)C(=O)N[C@@H](CCCNC(=N)N)C(=O)N[C@@H](CCCCN)C(=O)N[C@H](C(=O)N[C@H](C(=O)N[C@@H](CCCNC(=N)N)C(=O)N[C@@H](Cc1ccc(O)cc1)C(=O)N[C@@H](Cc1c[nH]c2ccccc12)C(=O)N[C@H](C(=O)NCC(=O)N[C@@H](CCCCN)C(=O)N[C@@H](CCCNC(=N)N)C(N)=O)[C@@H](C)O)C(C)C)C(C)C)C(C)C  IC50 (Corynebacterium glutamicum; growth; ATCC 13032): 20 nM
COc1ccccc1-c1n[nH]c2nc(N[C@H]3CC[C@H](NS(=O)(=O)CC(C)C)CC3)ncc12  relative abundance (bead binding, competition bead pull-down, measured: LINJ.08.1220; Leishmania donovani extract; 10 µM; relative to: vehicle): 1.38
Cc1nc2c(NCc3cccc(S(C)(=O)=O)c3)nccn2c1-c1ccc(O)c(F)c1  IC50 (Rhinovirus C; viral replication, high-content imaging; RV-C15a-mGL): 29 ± 20 nM

For quick reference, copied from above:
CC(C)[C@H]1NC(=O)C[C@H]2/C=C/CCSSC[C@@H](NC1=O)C(=O)N[C@H](Cc1cccc3ccccc13)C(=O)NCC(=O)O2  inhibition (CAMK2G (Homo sapiens, UniProt Q13555); enzyme activity, inhibitor; 10 µM): -2.7%
CC[C@H](C)[C@H](NC(=O)[C@H](Cc1c[nH]c2ccccc12)NC(=O)c1ccccc1)C(=O)N[C@@H](CCCNC(=N)N)C(=O)N[C@@H](Cc1ccc(O)cc1)C(=O)N[C@@H](CCCCN)C(=O)N[C@@H](Cc1c[nH]c2ccccc12)C(=O)N[C@H](CCCNC(=N)N)C(=O)N[C@@H](CCCNC(=N)N)C(=O)N[C@@H](CCCCN)C(=O)N[C@@H](CCCCN)C(=O)N[C@H](C(=O)N[C@@H](CCCNC(=N)N)C(=O)N[C@@H](Cc1ccc(O)cc1)C(=O)N[C@@H](Cc1c[nH]c2ccccc12)C(=O)N[C@H](C(=O)NCC(=O)N1CCC[C@H]1C(N)=O)[C@@H](C)O)C(C)C  IC50 (Corynebacterium glutamicum; growth; ATCC 13032): 60 nM
O=C(Oc1cc(OC(=O)c2cc(O)c(O)c(O)c2)c2ccccc2c1)c1cc(O)c(O)c(O)c1  IC50 (human alphaherpesvirus 2; viral replication, RT-qPCR; acyclovir-resistant): 1420 ± 220 nM
